Measured values pooled from the literature.
Protocols differ between the studies behind these lines. “And” joins repeats or separate records; there may be more than shown. ± marks the error that the study gave.
TDP1: Tyrosyl-DNA phosphodiesterase 1 (TDP1, Homo sapiens, UniProt Q9NUW8)
Sequence of UniProt Q9NUW8 (whole entry, looked up): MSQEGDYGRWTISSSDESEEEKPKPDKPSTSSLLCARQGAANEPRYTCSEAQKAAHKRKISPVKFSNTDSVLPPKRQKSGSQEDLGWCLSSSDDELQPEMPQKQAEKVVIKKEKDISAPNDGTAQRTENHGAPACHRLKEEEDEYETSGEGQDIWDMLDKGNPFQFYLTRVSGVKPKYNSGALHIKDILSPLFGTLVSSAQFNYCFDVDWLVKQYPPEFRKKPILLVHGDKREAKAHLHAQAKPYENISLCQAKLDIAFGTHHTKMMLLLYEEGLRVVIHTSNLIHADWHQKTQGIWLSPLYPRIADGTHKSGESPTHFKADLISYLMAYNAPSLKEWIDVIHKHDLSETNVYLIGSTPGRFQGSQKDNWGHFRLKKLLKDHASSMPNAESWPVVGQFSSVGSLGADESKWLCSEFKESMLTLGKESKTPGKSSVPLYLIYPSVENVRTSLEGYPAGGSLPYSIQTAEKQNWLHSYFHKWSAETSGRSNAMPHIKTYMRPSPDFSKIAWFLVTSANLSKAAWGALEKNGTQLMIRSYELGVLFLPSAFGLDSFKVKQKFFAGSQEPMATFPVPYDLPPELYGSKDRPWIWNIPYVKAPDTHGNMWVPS

Under “protein level log2 fold change”, `Cc1ncsc1-c1ccc([C@H](C)NC(=O)[C@@H]2C[C@@H](O)CN2C(=O)[C@@H](NC(=O)[C@H]2C[C@H](C(=O)N3CCC(c4cc(Nc5cc(C#N)ccn5)nc(N5CCC(F)(F)C5)c4)CC3)C2)C(C)(C)C)cc1` is recorded as -0.129 (CAL-33 with inducible wild-type LZK; MS proteomics, refers to: HSPB8; 500 nM, 24 h, added: doxycycline; baseline: DMSO).
Under “mean growth percent”, `O=C(C[Se]C(=O)c1cc2ccccc2[nH]1)Nc1cccc(C(F)(F)F)c1` is recorded as -76.6% (NCI60 melanoma subpanel; cell growth; 10 µM, 48 h, one-dose).
The inhibition of `COc1cc(N(C)CCN(C)C)c(NC(=O)/C=C/c2ccc([Si](C)(C)C)cc2)cc1Nc1nccc(-c2cn(C)c3ccccc23)n1` is reported as 56.5% (NCI-H1975; cell growth or viability, MTT; 0.5 µM, 72 h).
`COc1ccc2c(c1)c(CC(=O)[Se]CC(=O)Nc1cccc(C(F)(F)F)c1)c(C)n2C(=O)c1ccc(Cl)cc1`: “mean growth percent” -87% (NCI60 melanoma subpanel; cell growth; 10 µM, 48 h, one-dose).
The inhibition of `C=CC(=O)Nc1cc(Nc2nccc(-c3c(-c4ccc(Cl)cc4)n(C)c4ccccc34)n2)c(OC)cc1N(C)CCN(C)C` is reported as 76% (NCI-H1975; cell growth or viability, MTT; 0.5 µM, 72 h).
With `CCCC[N+]1=c2cc3c4cc2[O][Mn-2]1(=[C]=O)(=[C]=O)(=[C]=O)[n+]1ccc(cc1)C(=O)Nc1ccccc1NC(=O)c1cc[n+](cc1)[Mn-2](=[C]=O)(=[C]=O)(=[C]=O)([O]3)[N+]=4CCCC` the viability reduction was 90% (HCT-15; MTT; 50 µM, 48 h, photolysed compound).
The inhibition of `COc1cc(N(C)CCN(C)C)c(NC(=O)/C=C/c2ccc(S(C)(=O)=O)cc2)cc1Nc1nccc(-c2cn(C)c3ccccc23)n1` is reported as 64.3% (NCI-H1975; cell growth or viability, MTT; 0.5 µM, 72 h).
For `CC(C)Cc1ccc(C(C)C(=O)[Se]CC(=O)Nc2cccc(C(F)(F)F)c2)cc1` (centres unmarked), the mean TGI was 4.96 µM (NCI60 melanoma subpanel; total growth inhibition, inhibitor; five-dose).
`CC(C)c1ccc(N(C)c2ccc3c(c2)OCC[C@H]3CNc2cnccc2C(=O)O)cc1` has an IC50 of 0.0115 µM (RKO; cell growth or viability, ATP luminescence; 7 days).
With `Cc1nc(C)c2c(C)c(C=NOCc3ccc4nc(-c5ccccc5)c(Nc5ccc(C(=O)O)cc5)n4c3)sc2n1` (mixture of isomers) the inhibition was 0.3% (TDP1; enzyme activity, inhibitor; 100 µM, unpurified compound).
With `COc1cc(N2CCN(C(=O)CN)CC2)ccc1Nc1ncc(Cl)c(Nc2ccccc2P(C)(C)=O)n1` the viability was 56% (NCI-H3122; CCK-8; 50 nM, 48 h).
`Cn1ncc2cc(-c3cncc(Cl)c3N3CCC4(CCNC4=O)CC3)ccc21`: “log2 fold change” 1.2 (LS174T; gene expression, microarray, refers to: AQP1 mRNA; concentration not given, 4 h; baseline: untreated cells).
The lipid content of `COC(=O)C1=C(C)Oc2cc(OC)ccc2C1C(C(C)=O)C(=O)OC` (centres unmarked) is reported as 0.721 OD492 and 0.711 OD492 and 0.732 OD492 (3T3-L1 preadipocytes; adipogenesis, Oil Red O staining; IC20, 14 days, single replicate).
The colony survival of `CO[C@@H]1[C@@H](OC(N)=O)[C@@H](O)[C@H](Oc2ccc3c(O)c(NC(=O)c4ccc(O)c(CC=C(C)C)c4)c(=O)oc3c2C)OC1(C)C` is reported as 0.339% (DLD-1 BRCA2-/-; 200 µM, replicate A; baseline: untreated).
The sphingomyelin level of `CCCCCCc1cccc([C@H](O)C[C@H](CO)NC(=O)CCCCCCCCCCBr)c1` is reported as 69300 pmol/sample and 68400 pmol/sample and 51400 pmol/sample (HeLa; CERT activity, HPLC-MS/MS lipidomics, refers to: sphingomyelin 24; 1 µM, 24 h, not cell-number normalised).
`CCN(CC)CC(=O)Nc1cccc(-n2cc(-c3ccc4ccc(-c5cn(-c6cccc(NC(=O)CN(CC)CC)c6)nn5)cc4c3)nn2)c1` gave a fold regulation of -1.1 (RCC4; PCR angiogenesis array, refers to: CXCL9; 5 x IC50, 6 h, normoxia; baseline: untreated).
`COc1ccccc1-c1ccncc1C(=O)Nc1ccc(OCc2ccc(Cl)cc2)nn1` has a colony survival of 98.2% (DLD-1 parental (BRCA2 WT); 10 µM, average of 3 runs; baseline: untreated).
For `C=CC(=O)N1[C@@H](c2ccc3c(c2)OCO3)c2[nH]c3ccccc3c2C[C@H]1C(=O)N1CCN(C)CC1`, “log2 fold change” read 0 (HEK293T expressing CCNE1-3xFLAG; CCNE1 immunoprecipitation level, TMT IP-MS, refers to: CCNE1; 20 µM, 6 h; baseline: DMSO).
With `COc1cccc(OC)c1-c1cc(C(=O)NC2(C(=O)O)C3CC4CC(C3)CC2C4)nn1-c1ccc(C(=O)N(C)CCOCCOCCN(C)C(=O)[C@H](CCCCNC(=O)[C@H](CC(C)C)NC(=O)C2OC2C(=O)O)NC(=O)CN2CCN(CC(=O)[O-])CCN(CC(=O)[O-])CCN(CC(=O)[O-])CC2)cc1C(C)C.[177Lu+3]` (mixture of isomers) the internalized fraction was 0.83 ± 0.02% (HT-29; concentration not given, 60 min; baseline: added activity).
For `O=C(NCCOCCOCCNC(=O)c1cc2ccccc2c2ccccc12)c1cc(C(=O)N2CCNCCNCCNCC2)c(O)c(C(=O)N2CCNCCNCCNCC2)c1`, the IC50 was greater than 1000 µM (2C6 normal pancreas; cell viability, MTT; 24 h).
The growth percent of `CN(C)CCN1CCN(c2ccc3nc(-c4ccc5nc(-c6ccc(C(F)(F)F)cc6)[nH]c5c4)[nH]c3c2)CC1` is reported as 75.8% (HOP-92; SRB; 10 µM, 48 h).
The IC50 of `CN(C)C(=O)c1cccc(N2Cc3cn(Cc4ccc(F)cc4Cl)nc3C2)c1` is reported as 0.011 µM (HEK293 expressing GluA1 and GluA2; glutamate excitotoxic cell death, CellTox Green; added: glutamate).
For `CN1CCCNC(=O)c2cccc(c2)C(=O)NCCCN(C)CCCNc2cccc3c2C(=O)c2cccc(c2C3=O)NCCC1`, “log2 fold change” read 1.11 (SAS; RNA-Seq, refers to: NEK9 mRNA; 1 µM, 6 h; baseline: untreated cells).
The metabolite level of `COC(=O)c1cc(NC2=NC(=O)C(=Cc3ccc(C)cc3)S2)ccc1OC(C)=O` is reported as -0.01 fold change (MCF7; GC-MS, refers to: 1,3-propanediol; 1 µM; baseline: DMSO).
For `O=C(C[Se]C(=O)c1ccc2ccccc2c1)Nc1cccc(C(F)(F)F)c1`, the GI50 was 0.42 µM (HCC 2998; cell growth or viability, SRB).
With `CNS(=O)(=O)Nc1nccc(Cc2c(C)c3ccc(Oc4ncccc4F)cc3oc2=O)c1F` the IC50 was 0.0837 µM (NCI-H1915; cell viability; 7 days).
`COc1ccc2cc(/C=C/C(=O)Nc3cc(Nc4nccc(-c5cn(C)c6ccccc56)n4)c(OC)cc3N(C)CCN(C)C)ccc2c1` has an inhibition of 66.3% (NCI-H1975; cell growth or viability, MTT; 0.5 µM, 72 h).
`N#Cc1cccc(/C=C/C(=O)c2ccc(O)cc2)c1` gave a fold change of 94.3 (U-87 MG; refers to: MAP2; concentration not given; baseline: untreated).
`Cc1ncsc1-c1ccc(C(C)NC(=O)C2CC(O)CN2C(=O)C(NC(=O)CCCCCCCCCCN2CCCC(Nc3ncc(Cl)c(Nc4ccccc4S(=O)(=O)C(C)C)n3)C2)C(C)(C)C)cc1` (centres unmarked): “log2 fold change” -1.25 (22Rv1; RNA-seq, refers to: ZNF793 mRNA; concentration not given; baseline: DMSO).
`O=C(NC1CCCC1)c1cccc(N2Cc3cn(Cc4ccc(F)cc4)nc3C2)c1` gave an IC50 of 0.0035 µM (HEK293 expressing GluA1 and GluA2; glutamate excitotoxic cell death, CellTox Green; added: glutamate).
The IC50 of `NC(=O)c1ccc(-c2ccccc2Cl)c2c3c([nH]c12)CCC(N)C3` (centres unmarked) is reported as 0.0199 µM (MCF7/PTX, paclitaxel-resistant; cell growth, CellTiter-Glo; 96 h).
For `Cc1c(Cl)cccc1Nc1ccccc1C(=O)[Se]CC(=O)Nc1cccc(C(F)(F)F)c1`, the mean TGI was 3.57 µM (NCI60 leukaemia subpanel; NCI60 five-dose screen).
`COC(=O)c1c(C)oc2cc(Br)c(O)c(C=NOCc3ccc(-c4nc5cc(-c6ccccc6)ccn5c4Nc4ccc(C(=O)O)cc4)cc3)c12` (mixture of isomers) has an inhibition of 66.9% (TDP1; enzyme activity, inhibitor; 100 µM, unpurified compound).
Under “mean growth percent”, `O=C(C[Se]C(=O)c1cccnc1Nc1cccc(C(F)(F)F)c1)Nc1cccc(C(F)(F)F)c1` is recorded as -88.1% (NCI60 melanoma subpanel; cell growth; 10 µM, 48 h, one-dose).
For `Cc1ccc(C(=O)/C=C/c2ccccc2)s1`, “mean growth inhibition” read 3.8% (NSCLC panel (nine cell lines); 10 µM).

A few entries again:
`CCN(CC)CC(=O)Nc1cccc(-n2cc(-c3ccc4ccc(-c5cn(-c6cccc(NC(=O)CN(CC)CC)c6)nn5)cc4c3)nn2)c1` gave a fold regulation of -1.1 (RCC4; PCR angiogenesis array, refers to: CXCL9; 5 x IC50, 6 h, normoxia; baseline: untreated).
For `Cc1c(Cl)cccc1Nc1ccccc1C(=O)[Se]CC(=O)Nc1cccc(C(F)(F)F)c1`, the mean TGI was 3.57 µM (NCI60 leukaemia subpanel; NCI60 five-dose screen).
With `COc1cc(N2CCN(C(=O)CN)CC2)ccc1Nc1ncc(Cl)c(Nc2ccccc2P(C)(C)=O)n1` the viability was 56% (NCI-H3122; CCK-8; 50 nM, 48 h).
`Cn1ncc2cc(-c3cncc(Cl)c3N3CCC4(CCNC4=O)CC3)ccc21`: “log2 fold change” 1.2 (LS174T; gene expression, microarray, refers to: AQP1 mRNA; concentration not given, 4 h; baseline: untreated cells).
